# Experimental data pooled from the literature.
# A part holds a random share of what one study measured. Changes are numbered by the printed parent chain.

# Set 1
# Target: FOSL1, bZIP domain (human)
# Method: DHFR protein complementation
# Medium: yeast
# Notes: single substitutions, most at no-binding floor
# Relative to: wild-type JUN-FOS pair
# Reading: higher = stronger binding
# Starting sequence: JUN, bZIP domain (human); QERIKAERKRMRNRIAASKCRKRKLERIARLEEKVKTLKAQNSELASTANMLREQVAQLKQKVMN; partner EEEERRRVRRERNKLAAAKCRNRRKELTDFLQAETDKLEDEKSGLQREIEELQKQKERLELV
Change,binding fitness
A29S,-0.519 natural log
N42G,-1.37 natural log
E54P,-1.3 natural log
M51G,-0.576 natural log
I28C,-0.794 natural log
Q58H,-0.451 natural log
Q41H,-0.679 natural log
L59C,-1.27 natural log
L31C,-1.07 natural log
V56Q,-1.33 natural log
R53I,-1.4 natural log
L38Q,-1.15 natural log
L52N,-1.02 natural log
E44M,-0.427 natural log
M51H,-0.403 natural log
S47R,-0.252 natural log

# Set 2
# Target: CCNF, cyclin fold, Cln2 fusion (human)
# Method: yeast growth competition, sequencing
# Medium: yeast
# Notes: strong parent motif
# Relative to: not given
# Reading: higher = stronger binding
# Starting sequence: RBL2 docking peptide (human); STTRRRLFVENDS
Change,normalised enrichment score
STPRRRLFVENDS [T3P],7.41
STYRRRLFVENDS [T3Y],6.78
MTTRRRLFVENDS [S1M],8.37
STTRRRLFVENDT [S13T],8.31
STTRRRLFVLNDS [E10L],7.03
STTRRRLFVELDS [N11L],9.6
STTRRHLFVENDS [R6H],1.87
STTRRRLFVWNDS [E10W],7.45
STTRRRLFVYNDS [E10Y],6.26
STTRRRLFVEEDS [N11E],8.65
STTRRRLFVENHS [D12H],7.79
LTTRRRLFVENDS [S1L],9.32
STTRRRLFDENDS [V9D],7.52

# Set 3
# Target: UBE2T UBC core domain (UniProt Q9NPD8)
# Sequence of UniProt Q9NPD8 (whole entry, looked up): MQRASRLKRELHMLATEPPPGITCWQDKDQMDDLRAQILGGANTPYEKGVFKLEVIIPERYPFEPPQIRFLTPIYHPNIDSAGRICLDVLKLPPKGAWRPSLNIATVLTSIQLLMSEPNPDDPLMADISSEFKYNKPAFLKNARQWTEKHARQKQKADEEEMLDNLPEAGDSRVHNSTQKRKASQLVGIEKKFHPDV
# Method: yeast two-hybrid
# Medium: yeast
# Notes: mostly zero background
# Relative to: not given
# Reading: higher = stronger interaction
# B1: RFWD3 RING domain (UniProt Q6PCD5); chain ASMDEEEGDTCTICLEQWTNAGDHRLSALRCGHLFGYRCISTWLKGQVRKCPQCNKKARHSDIVV
# B2: RNF19A RING domain (UniProt Q9NV58); chain ISKQIGDFIECPLCLLRHSKDRFPDIMTCHHRSCVDCLRQYLRIEISESRVNISCPECTERFNPHDIR
# B3: RNF133 RING domain (UniProt Q8WVZ7); chain DEEINPNGDSCVICFERYKPNDIVRILTCKHFFHKNCIDPWILPHGTCPICKCDILKVLGIQ
# B4: SYTL4 RING domain (UniProt Q96C24); chain RGSQHYSDRTCARCQESLGRLSPKTNTCRGCNHLVCRDCRIQESNGTWRCKVCAKEIELKKAT
# B5: MAP3K1 RING domain (UniProt Q13233); chain NSIKDEEEQMCPICLLGMLDEESLTVCEDGCRNKLHHHCMSIWAEECRRNREPLICPLCRSKWRSHDFYS
# B6: SH3RF1 RING domain (UniProt Q7Z6J0); chain DESALLDLLECPVCLERLDASAKVLPCQHTFCKRCLLGIVGSRNELRCPECRTLVGSGVEEL
# B7: UBOX5 RING domain (UniProt O94941); chain EQPGSILGPECASCKRVFSPYFKKEPVYQLPCGHLLCRPCLGEKQRSLPMTCTACQRPVASQDVLR
Molecule,lacZ reporter activity
B1 (RFWD3 RING domain),0
AVPSGLEENLCKICMDSPIDCVLLECGHMVTCTKCGKRMNECPICRQYVIRAVHVF (RFFL RING domain (UniProt Q8WZ73)),0
B2 (RNF19A RING domain),0
NLSELTPYILCSICKGYLIDATTITECLHTFCKSCIVRHFYYSNRCPKCNIVVHQTQPLY (PCGF6 RING domain (UniProt Q9BYE7)),0
B3 (RNF133 RING domain),0
PEDRESLKSACVVCLSSFKSCVFLECGHVCSCTECYRALPEPKKCPICRQAITRVIPLY (MUL1 RING domain (UniProt Q969V5)),0
B4 (SYTL4 RING domain),0
FDGDVDPDLKCALCHKVLEDPLTTPCGHVFCAGCVLPWVVQEGSCPARCRGRLSAKELN (PDZRN3 RING domain (UniProt Q9UPQ7)),0
B5 (MAP3K1 RING domain),0
KLRKLKEAMLCMVCCEEEINSTFCPCGHTVCCESCAAQLQSCPVCRSRVEHVQHVY (MYLIP RING domain (UniProt Q8WY64)),0
B6 (SH3RF1 RING domain),0
KETIKKTTKPCPRCHVPVEKNGGCMHMKCPQPQCRLEWCWNCGCEWNRVCMG (PRKN RING domain (UniProt O60260)),0
B7 (UBOX5 RING domain),0

# Set 4
# Target: Sal-like protein 4, full length isoform B (SALL4, Homo sapiens, UniProt Q9UJQ4-2, residues 1-616)
# Method: universal PBM
# Molecule type: double-stranded DNA, one strand shown
# Medium: in vitro
# Concentration: not given
# Notes: 8-mer, flanks averaged, mean of replicates
# Reading: higher = stronger binding
Sequence,E-score
AGGCATCG,-0.189
GACCTTCC,-0.136
GTTCCTTA,-0.0429
AACTCATG,0.131
AATTAGTC,0.243
AATCCTTG,0.0392
GTTTACTA,0.193
AGCGAGAC,-0.317
AGCGAGCG,-0.165
AAGAGTAG,0.0737
GATCCTAA,-0.115
CTGAGACA,-0.104
GCTCCAGA,-0.204
AACCGTCG,-0.13
TAATGGGA,0.173
AGGTCGGA,-0.0651
CCCTCGCA,-0.217
AGTAGGCA,0.0496
AAAGTACA,0.265
CCACGGGG,-0.345
ACACGTTG,0.00118
GTCTCGCA,-0.0874
ATTGTTGC,0.182
TTATTGAA,0.397
CAGCTCTC,-0.204

# A few entries again (set 4):
Sequence,E-score
AACCGTCG,-0.13
AACTCATG,0.131
CCCTCGCA,-0.217
ATTGTTGC,0.182
CCACGGGG,-0.345
AGGCATCG,-0.189
GATCCTAA,-0.115
TAATGGGA,0.173
AGCGAGAC,-0.317
